# Measurements from different studies.
# Each line is one published result; not all experiments were run side by side. “And” joins repeats or separate records; there may be more than shown.
# Target: Receptor tyrosine-protein kinase erbB-2 (ERBB2, Homo sapiens, UniProt P04626)
SMILES,assay,setting,scale,measurement,result
COc1ccc(C(=O)/C=C/c2ccccc2-c2c[nH]c3ccc(C#N)cc23)c(O)c1,"enzyme activity, inhibitor",20 µM,,inhibition,-16%
CC[C@H](C)[C@H](NC(=O)[C@H](CCCCNC(=O)CN(CCNC(=O)CN(CCNC(=O)CN(CCNC(=O)CN(CCNC(=O)[C@H](CCCNC(=N)N)NC(C)=O)C(=O)Cn1ccc(N)nc1=O)C(=O)Cn1cnc2c(=O)[nH]c(N)nc21)C(=O)Cn1cnc2c(=O)[nH]c(N)nc21)C(=O)Cn1ccc(N)nc1=O)NC(=O)[C@H](C)NC(=O)[C@H](CCCNC(=N)N)NC(=O)[C@H](CCCCN)NC(=O)[C@H](CCC(N)=O)NC(=O)[C@H](CCC(N)=O)NC(=O)[C@H](CC(N)=O)NC(=O)[C@@H](NC(=O)[C@H](CCCN)NC(=O)[C@H](CC(N)=O)NC(=O)[C@@H]1CCCN1C(=O)[C@H](CC(=O)O)NC(=O)[C@H](CC(C)C)NC(=O)[C@H](C)NC(=O)[C@H](CS)NC(=O)[C@H](CCCC(=O)NCCN(CC(=O)NCCN(CC(=O)NCCN(CC(=O)NCCN(CC(N)=O)C(=O)Cn1cnc2c(=O)[nH]c(N)nc21)C(=O)Cn1ccc(N)nc1=O)C(=O)Cn1ccc(N)nc1=O)C(=O)Cn1cnc2c(=O)[nH]c(N)nc21)NC(=O)[C@H](Cc1c[nH]c2ccccc12)NC(=O)[C@H](Cc1ccc(O)cc1)NC(=O)[C@H](CCCNC(=N)N)NC(=O)[C@H](CC(N)=O)NC(=O)[C@H](CCCNC(=N)N)NC(=O)[C@H](CC1CCCCC1)NC(=O)[C@H](CCC(=O)O)NC(=O)[C@H](CCCCN)NC(C)=O)[C@@H](C)O)C(=O)N[C@@H](CCCNC(=N)N)C(=O)N[C@@H](CO)C(=O)N[C@H](C(=O)N[C@@H](Cc1ccc(O)cc1)C(=O)N[C@@H](CCC(=O)O)C(=O)N[C@@H](CCC(=O)O)C(=O)NCC(N)=O)[C@@H](C)CC,"binding, affinity selection mass spectrometry","1 h, 4 °C, unit not given",relative to: control-subtracted,enrichment,1.39
CN1CC[C@@H](COc2cnc(C#N)cc2-c2ccn3nc(NC(=O)C4CC4)cc3c2)C1,"enzyme activity, inhibitor",1 µM,,inhibition,5%
C=CC(=O)Nc1cccc(-c2cnc3[nH]cc(C(=O)NC(C)(C)C)c3n2)c1,kinase activity,0.1 µM,,inhibition,-5% and -8%
CN1CCN(Cc2ccc(NC(=O)c3cccc(C#Cc4cnc(N)c5ncccc45)c3)cc2C(F)(F)F)CC1,"cell-free assay, competition with immobilised ligand",50 nM,,remaining binding,15%
O=C(Cc1ccc(OCc2ccccc2)cc1)NC1(C(=O)O)CCN(C(=O)c2ccc(-c3cccc(Cl)c3)cc2)CC1,"enzyme activity, inhibitor",10 µM,,activity vs control,102%
CC[C@H](C)[C@H](NC(=O)[C@H](CCCCNC(=O)CN(CCNC(=O)CN(CCNC(=O)CN(CCNC(=O)CN(CCNC(=O)[C@H](CCCNC(=N)N)NC(C)=O)C(=O)Cn1ccc(N)nc1=O)C(=O)Cn1cnc2c(=O)[nH]c(N)nc21)C(=O)Cn1cnc2c(=O)[nH]c(N)nc21)C(=O)Cn1ccc(N)nc1=O)NC(=O)[C@H](C)NC(=O)[C@H](CCCNC(=N)N)NC(=O)[C@H](CCCCN)NC(=O)[C@H](CCC(N)=O)NC(=O)[C@H](CCC(N)=O)NC(=O)[C@H](CC(N)=O)NC(=O)[C@@H](NC(=O)[C@H](CC(C)C)NC(=O)[C@H](CC(N)=O)NC(=O)[C@@H]1CCCN1C(=O)[C@H](CC(=O)O)NC(=O)[C@H](CC(C)C)NC(=O)[C@H](C)NC(=O)[C@H](CS)NC(=O)[C@H](CCCC(=O)NCCN(CC(=O)NCCN(CC(=O)NCCN(CC(=O)NCCN(CC(N)=O)C(=O)Cn1cnc2c(=O)[nH]c(N)nc21)C(=O)Cn1ccc(N)nc1=O)C(=O)Cn1ccc(N)nc1=O)C(=O)Cn1cnc2c(=O)[nH]c(N)nc21)NC(=O)[C@H](Cc1c[nH]c2ccccc12)NC(=O)[C@H](Cc1ccc(O)cc1)NC(=O)[C@H](CCCNC(=N)N)NC(=O)[C@H](CC(N)=O)NC(=O)[C@H](CCCNC(=N)N)NC(=O)[C@H](CC1CCCCC1)NC(=O)[C@H](CCC(=O)O)NC(=O)[C@H](CCCCN)NC(=O)[C@H](CO)NC(=O)[C@H](Cc1ccccc1)NC(C)=O)[C@@H](C)O)C(=O)N[C@@H](CCCNC(=N)N)C(=O)N[C@@H](CO)C(=O)N[C@H](C(=O)N[C@@H](Cc1ccc(O)cc1)C(=O)N[C@@H](CCC(=O)O)C(=O)N[C@@H](CCC(=O)O)C(N)=O)[C@@H](C)CC,"binding, SPR",25 °C,,dissociation rate constant,0.0012 s⁻¹
COc1cc(OC)c(F)c(/C=C/c2cnc3ccn(S(=O)(=O)c4cn(CCF)cn4)c3n2)c1F,,1000 nM,,inhibition,2.5%
CC[C@H](C)[C@H](NC(=O)[C@H](CCCCNC(=O)CN(CCNC(=O)CN(CCNC(=O)CN(CCNC(=O)CN(CCNC(=O)[C@H](CCCNC(=N)N)NC(C)=O)C(=O)Cn1ccc(N)nc1=O)C(=O)Cn1cnc2c(=O)[nH]c(N)nc21)C(=O)Cn1cnc2c(=O)[nH]c(N)nc21)C(=O)Cn1ccc(N)nc1=O)NC(=O)[C@H](C)NC(=O)[C@H](CCCNC(=N)N)NC(=O)[C@H](CCCCN)NC(=O)[C@H](CCC(N)=O)NC(=O)[C@H](CCC(N)=O)NC(=O)[C@H](CC(=O)O)NC(=O)[C@@H](NC(=O)[C@H](CC(C)C)NC(=O)[C@H](CC(N)=O)NC(=O)[C@@H]1CCCN1C(=O)[C@H](CC(=O)O)NC(=O)[C@H](CC(C)C)NC(=O)[C@H](C)NC(=O)[C@H](CS)NC(=O)[C@H](CCCC(=O)NCCN(CC(=O)NCCN(CC(=O)NCCN(CC(=O)NCCN(CC(N)=O)C(=O)Cn1cnc2c(=O)[nH]c(N)nc21)C(=O)Cn1ccc(N)nc1=O)C(=O)Cn1ccc(N)nc1=O)C(=O)Cn1cnc2c(=O)[nH]c(N)nc21)NC(=O)[C@H](Cc1c[nH]c2ccccc12)NC(=O)[C@H](Cc1ccc(O)cc1)NC(=O)[C@H](CCCNC(=N)N)NC(=O)[C@H](CC(N)=O)NC(=O)[C@H](CCCNC(=N)N)NC(=O)[C@H](CC1CCC1)NC(=O)[C@H](CCC(=O)O)NC(=O)[C@H](CCCCN)NC(=O)[C@H](CO)NC(C)=O)[C@@H](C)O)C(=O)N[C@@H](CCCNC(=N)N)C(=O)N[C@@H](CO)C(=O)N[C@H](C(=O)N[C@@H](Cc1ccc(O)cc1)C(=O)N[C@@H](CCC(=O)O)C(=O)N[C@@H](CCC(=O)O)C(N)=O)[C@@H](C)CC,"binding, affinity selection mass spectrometry","1 h, 4 °C, unit not given",relative to: control-subtracted,enrichment,4.36
COc1cc(Nc2nccc(-c3cnn4nc(OC)ccc34)n2)cc(C(F)(F)F)c1,"binding, competition with immobilised ligand",1 µM,,remaining binding,91%
CNC(=O)C1CCN(c2cc(C)c(F)cc2NC(=O)c2ccc(-c3cc(O)ccc3C)c(C)c2)CC1,"binding, competition with immobilised ligand",1 µM,,remaining binding,100%
CCn1cc(C(=O)O)c(=O)c2c(N)c(F)c(NC3CCCCC3)cc21,kinase activity,"0.1 µM, together with: ATP at Km",,inhibition,-0.1%
C=CC(=O)N1CCc2ccc(-n3c(=O)ccc4cnc5ccc(-c6cnn(C)c6)cc5c43)cc21,KINOMEscan,1 µM,relative to: DMSO control,remaining binding,89%
Nc1ncc2c(n1)-c1c([nH]c3ccc(C4=CCOCC4)cc13)CCC2,"binding, competition with immobilised ligand",1 µM,,remaining binding,62%
C=C1CCCCCCCCCC(CO)C1=O (stereo not drawn),"cell-free assay, competition with immobilised ligand",10 µM,,remaining binding,100%

# A few entries again:
SMILES,assay,setting,scale,measurement,result
Nc1ncc2c(n1)-c1c([nH]c3ccc(C4=CCOCC4)cc13)CCC2,"binding, competition with immobilised ligand",1 µM,,remaining binding,62%
